Measured values of several laboratories.
Parts stem from different laboratories: compare values within a part only.

Set 1
Target: Interferon regulatory factor 5, full length, phosphomimetic (IRF5, Homo sapiens, UniProt Q13568-2, residues 1-514, S451D/S453D/S456D/S462D)
Technique: protein-binding microarray
Molecule type: double-stranded DNA, one strand shown
Medium: in vitro
Concentration: 940 nM top
Notes: 60-bp whole probe
With: salmon DNA 0.4 mg/ml
Reference: random background probes
Reading: higher = stronger binding
All sequences stand within: GCCTAGCAC … GTCTTGATTCGCTTGACGCTGCTG
Oligonucleotide | fitted relative affinity [z-score]
TATCTTATCCTATCAGTTTAGTGCTAG | 0.195
GACCGTATCCTTATCCTGACGTGCTAG | 0.346
TTAGGTTCCGGTTTGGGTTAGTGCTAG | 3.95
GATGGTTTCCTTTCCCTGACGTGCTAG | 2.57
TCACTTCTGCCTGTCCAACTGTGCTAG | 0.757
TCAACTCTCTGCTTGTAACTGTGCTAG | 1.59
TCAGTTCTTATCCTTCCCACTGTGCTA | 1.33

Set 2
Target: PABPC1L2, full length, GST fusion (mouse, UniProt A0ABA7IW68)
Technique: RNAcompete
Molecule type: RNA
Medium: in vitro
Concentration: 20 nM
Notes: 7-mer, probes averaged, single round
Reference: mean of 7-mers
Reading: higher = stronger binding
Residues (chain): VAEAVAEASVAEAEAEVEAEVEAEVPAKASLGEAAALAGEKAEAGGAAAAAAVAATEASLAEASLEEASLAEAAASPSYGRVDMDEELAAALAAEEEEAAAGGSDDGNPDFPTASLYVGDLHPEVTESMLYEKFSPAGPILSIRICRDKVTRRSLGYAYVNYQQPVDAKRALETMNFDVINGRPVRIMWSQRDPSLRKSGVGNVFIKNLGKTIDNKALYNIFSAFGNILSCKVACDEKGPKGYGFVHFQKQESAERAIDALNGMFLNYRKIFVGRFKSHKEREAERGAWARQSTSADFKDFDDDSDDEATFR
Oligonucleotide | 7-mer Z-score
ACAUACU | -0.11
UGAUAUA | -0.0681
CUAAUUA | -0.273
AUCAUCU | -0.248
UAGUACA | -0.101
GCCUCAC | -0.173

Set 3
Target: Fragile X messenger ribonucleoprotein 1, C-terminal low-complexity region (Fmr1, Mus musculus, UniProt P35922)
Technique: RNA Bind-n-Seq
Molecule type: RNA
Medium: in vitro
Concentration: 200 nM
Notes: whole 134-nt RNA, ends assumed
With: 150 mM LiCl
Reference: input library
Reading: higher = stronger binding
Library: 7-deaza-guanosine replaces G
Oligonucleotide | log2 enrichment
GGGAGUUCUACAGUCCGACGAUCCCUGUGCUACACAUCGUAUGUACCGAAUCGGAAAAAAAGGGAAAAAAAGGGGAAAAAAAGGAAAGUAUUAUGUUACGCCGUUCGGAUCUGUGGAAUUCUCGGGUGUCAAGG | -0.164
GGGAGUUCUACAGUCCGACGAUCCAUGUUGAAAGACAUGCUUUUAUUUUUUUGUAAAACAAUAUAGGAGCUGUGUCUACUAUUAAAAGUGAAACAUUUUGGCAUGUUUGUUAAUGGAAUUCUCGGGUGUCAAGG | -3.75
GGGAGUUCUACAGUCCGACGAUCUCAAGUCCUGUGCUACACAUCGUAUGUACCGAAUCGGGGCCGGGCCGGGCCGGGGAAAGUAUUAUGUUACGCCGUUCGGAUCUGCACUUCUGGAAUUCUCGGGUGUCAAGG | 0.848
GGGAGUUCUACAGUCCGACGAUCAGUCCUGUGCUACACAUCGUAUGUACCGAAUCGGGUUUUUGGUUUUUGGGUUUUUGGAAAGUAUUAUGUUACGCCGUUCGGAUCUGCACUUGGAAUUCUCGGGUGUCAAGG | -2.07
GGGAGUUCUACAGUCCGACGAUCCACAGACAACACGCACCCACACAGACACAGAAAAAAGGGGUUGGGAUGGGGACAGGGUGCACAGCAGGGCGGGGUAGGACCCCAGCCCCUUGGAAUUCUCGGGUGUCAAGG | 0.432
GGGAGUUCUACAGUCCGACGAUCAAUUCUCAUUUCUCGACAUAAAGCCUUGUCUAAAGUGAGAUGUUUUCCAGGUCAUACAUAGGUUUCUCCCUGGGGUAAUUGGAAGUUCUUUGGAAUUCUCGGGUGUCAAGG | -2.66

Mixed results
Molecule | target | test | test system | conditions | scale | endpoint | result
PhoQ, residues 284 288 289 292 302 303 SLSLLA | PhoP, residues 12 14 15 18 19 LYFRQ (Escherichia coli, UniProt P23836) | Sort-seq, item: YFP reporter | E. coli | PhoQ-PhoP variant library, with: 10 µM Mg2+ | reference: high Mg2+ state, higher = stronger signaling | fold induction | 3.45

For quick reference, copied from above (set 1):
Oligonucleotide | fitted relative affinity [z-score]
TATCTTATCCTATCAGTTTAGTGCTAG | 0.195
GACCGTATCCTTATCCTGACGTGCTAG | 0.346
